Measurements gathered from unrelated publications.
Each line is one published result; not all experiments were run side by side. ± marks the error that the study gave.

Cc1ccc(Cl)cc1NC(=O)c1cc(-c2cccc(O)c2)on1: “calcium retention capacity ratio” 9.63 ± 0.29 (mitochondrial permeability transition pore, mouse; isolated mouse liver mitochondria; 1.56 µM; relative to: untreated).
CC[C@H](NC(=O)[C@H](CC(C)C)NC(=O)NCc1ccccc1)C(=O)C(=O)NCc1cccc(Cl)c1OC: calpain inhibition “active” (calpain; concentration not given, single separated diastereoisomer).
With CN1CCN(C(=O)c2ccc(-c3ccc4c(c3)/C(=C/c3ccc(N5CCOCC5)cc3)C(=O)N4)cc2)CC1 the selectivity ratio was 1 (FGFR3; relative to: IC50 FGFR3 over lowest IC50).
The pCu of O=S(=O)([O-])CCCSCCN(CCSCCCS(=O)(=O)[O-])CCSCCCS(=O)(=O)[O-].[Na+].[Na+].[Na+] is reported as 16.9 (Cu(I); competition titration; 10 µM, pH 7.0, ionic strength 0.1, together with: Cu(I) 1 µM; higher = stronger binding).
The IC50 of CC(=O)N[C@@H](Cc1ccc(O)cc1)CN(CC(=O)N[C@@H](CCCCNC(=N)N)CN(CC(=O)N[C@@H](Cc1ccccc1)CN(CC(=O)N[C@H]1CCCCNc2c(F)c(F)c(c(F)c2F)S(=O)(=O)c2c(F)c(F)c(c(F)c2F)NCCCC[C@@H](CN(CC(=O)N[C@@H](C)CN(CC(N)=O)S(C)(=O)=O)S(C)(=O)=O)NC(=O)CN(S(=O)(=O)CC(C)C)C[C@H](CC(C)C)NC(=O)CN(S(=O)(=O)CCNC(=N)N)C1)S(=O)(=O)CC(C)C)S(=O)(=O)CCNC(=N)N)S(C)(=O)=O is reported as 67.9 ± 15.2 µM (CREB; reporter gene, inhibitor, CRE Renilla luciferase; HEK-293T; 30 min, together with: forskolin 10 µM for 5 h).
Cc1cc(NC(=O)[C@H](O)c2cc(F)cc(F)c2)ccc1-c1cnc(N)c(C(=O)NC(C)C)c1 has an inhibition of ~90% (phospho-PERK; refers to: pPERK/PERK ratio; mouse 786-O xenograft, tumour; 30 mg/kg, 1 h).
With COc1ccc(-c2cc(C(=O)Nc3cccc(Cl)c3C)no2)cc1O the EC50 was 2.8e-05 µM (mitochondrial permeability transition pore (mouse); Ca2+-induced mitochondrial swelling; isolated mouse liver mitochondria).
CC[C@H](C)[C@H](NC(=O)[C@H](CCCCN)NC(=O)[C@H](CCCNC(=N)N)NC(=O)[C@H](Cc1ccc(O)cc1)NC(C)=O)C(=O)N[C@@H](CC(C)C)C(=O)N[C@@H](CC(N)=O)C(=O)N[C@@H](CC(=O)O)C(=O)N[C@@H](CC(C)C)C(=O)N[C@@H](CO)C(=O)N[C@@H](CO)C(=O)N[C@@H](CC(=O)O)C(=O)N[C@@H](C)C(N)=O gave an IC50 of > 100 µM (CREB; reporter gene, inhibitor, CRE Renilla luciferase; HEK-293T; 30 min, together with: forskolin 10 µM for 5 h).
With CC1OC(Oc2c(-c3ccc(O)cc3)oc3cc(O)cc(O)c3c2=O)C(OC(=O)C=Cc2ccc(O)cc2)C(O)C1OC(=O)C=Cc1ccc(O)cc1 (stereo not shown) the inhibition was 92.8% (CCR2; macrophage infiltration; mouse, thioglycollate peritonitis, peritoneum; intraperitoneal, 150 mg/kg).
Cc1ncc(Cl)cc1NC(=O)c1cc(-c2ccc(F)c(O)c2)on1 — result for “calcium retention capacity ratio”: 9.12 ± 0.88 (mitochondrial permeability transition pore, mouse; isolated mouse liver mitochondria; 1.56 µM; relative to: untreated).
With CC1(C)CC[C@]2(C(=O)O)CC[C@]3(C)C(=CC[C@@H]4[C@@]5(C)CC[C@H](O[C@@H]6OC[C@H](O)[C@H](O)[C@H]6O)[C@@](C)(CO)[C@@H]5CC[C@]43C)[C@@H]2C1 the EC50 was 6.9 ± 1 µM (PPARs; reporter gene, agonist; HepG2 transfected PPRE-luciferase and PPAR; 20 h).
With O=S(=O)([O-])CCCSCCCN(CCCSCCCS(=O)(=O)[O-])CCCSCCCS(=O)(=O)[O-].[Na+].[Na+].[Na+] the pCu was 11.9 (Cu(I); competition titration; 10 µM, pH 7.0, ionic strength 0.1, together with: Cu(I) 1 µM; higher = stronger binding).
The IC50 of CC(=O)N[C@@H](Cc1ccc(O)cc1)CN(CC(=O)N[C@@H](CCCCN)CN(CC(=O)N[C@@H](Cc1ccccc1)CN(CC(=O)N[C@H]1CCCCNc2c(F)c(F)c(c(F)c2F)S(=O)(=O)c2c(F)c(F)c(c(F)c2F)NCCCC[C@@H](CN(CC(N)=O)S(C)(=O)=O)NC(=O)CN(S(=O)(=O)CC(C)C)C[C@H](CC(C)C)NC(=O)CN(S(=O)(=O)CCN)C1)S(=O)(=O)CC(C)C)S(=O)(=O)CCN)S(C)(=O)=O is reported as 64 ± 22.3 µM (CREB; reporter gene, inhibitor, CRE Renilla luciferase; HEK-293T; 30 min, together with: forskolin 10 µM for 5 h).
Under “fold decrease of inhibition”, CCCCC[N+](CCCCC)(CCCCC)CCCCC is recorded as > 10 fold (Kir1.1 (rat); ion current, blocker, inside-out patch clamp; Xenopus oocytes; concentration not given, +40 mV, together with: extracellular K+ 4 to 120 mM).
CC[C@H](C)[C@@H]1NC(=O)[C@H](CCCNC(=N)N)NC(=O)[C@H](C)NC(=O)CNC(=O)[C@H](CCCCN)NC(=O)[C@H](CCCNC(=N)N)NC(=O)[C@H](C(C)C)NC(=O)[C@H](C)NC(=O)[C@@H]2CSSC[C@@H]3NC(=O)[C@H](CO)NC(=O)[C@H]([C@@H](C)O)NC(=O)CNC(=O)[C@H](CCCNC(=N)N)NC(=O)[C@@H]4CCCN4C(=O)[C@H](CSSC[C@@H](C(=O)N[C@@H](CC(C)C)C(=O)O)NC(=O)[C@H](CCCCN)NC(=O)[C@H](CC(C)C)NC(=O)[C@H](CC(C)C)NC(=O)[C@H](Cc4ccccc4)NC(=O)[C@H](CO)NC(=O)[C@H](CC(N)=O)NC3=O)NC(=O)[C@H](CC(=O)O)NC(=O)[C@H](CSSC[C@H](NC(=O)[C@H](CCSC)NC(=O)[C@@H]3CCCN3C(=O)[C@@H](NC(=O)[C@H](CCC(N)=O)NC(=O)CNC(=O)[C@H](Cc3ccc(O)c(I)c3)NC(=O)[C@@H](N)CCCCN)C(C)C)C(=O)N[C@@H](CC(=O)O)C(=O)N[C@@H](C)C(=O)NCC(=O)N[C@@H](CCC(=O)O)C(=O)N[C@@H](CCC(N)=O)C(=O)N2)NC(=O)[C@H](CC(C)C)NC(=O)[C@H](CCCCN)NC(=O)CNC1=O [iodine-125 labelled]: “specific binding increase” ~4 fold (CART peptide binding site (rat); PC-12 differentiated 3 days; concentration not given; relative to: undifferentiated cells).
For CC(=O)Nc1ccc(Sc2ncccc2C(=O)Nc2ccc(F)cc2)cn1, the span was 43 nM (P2Y receptors, human; IP1 accumulation, positive allosteric modulator; HEK293 parental; together with: ATP).
Cc1sc2ncn(CC(=O)N3CCCC3)c(=O)c2c1-c1cccc(Br)c1: “calcium fluorescence increase” 1.75 fold (NMDA receptor mouse; patch clamp with Ca2+ imaging; cultured cortical neurons; 50 µM; relative to: vehicle).
With CC(=O)N[C@@H](Cc1ccc(O)cc1)CN(CC(=O)N[C@@H](CCCCN)CN(CC(=O)N[C@@H](CC(C)C)CN(CC(=O)N[C@H]1CCCCNc2c(F)c(F)c(c(F)c2F)S(=O)(=O)c2c(F)c(F)c(c(F)c2F)NCCCC[C@@H](CN(CC(=O)N[C@@H](C)CN(CC(N)=O)S(C)(=O)=O)S(C)(=O)=O)NC(=O)CN(S(=O)(=O)CC(C)C)C[C@H](CC(C)C)NC(=O)CN(S(=O)(=O)CCN)C1)S(=O)(=O)CC(C)C)S(=O)(=O)CCN)S(C)(=O)=O the IC50 was > 100 µM (CREB; reporter gene, inhibitor, CRE Renilla luciferase; HEK-293T; 30 min, together with: forskolin 10 µM for 5 h).
The EC50 of CCCCCCC1N=C(N)N=C(N)N1c1ccc(Cl)cc1 (racemic) is reported as 660 µM (membrane disruption; SYTOX Green uptake; Escherichia coli, ATCC 25922).
C[n+]1ccc(/C=N/NC(=O)c2cncc(C(=O)N/N=C/c3cc[n+](C)c4ccccc34)n2)c2ccccc21 has a delta Tm of 25 °C (G-quadruplex DNA 22CTA antiparallel; UV melting; 6 µM, K10 buffer, together with: DNA 3 µM).
With C[C@@H]1O[C@@H](O[C@H]2[C@H](O[C@H]3CC[C@@]4(C)[C@@H](CC[C@]5(C)[C@@H]4CC=C4[C@@H]6CC(C)(C)CC[C@]6(C(=O)O)CC[C@]45C)[C@]3(C)CO)OC[C@H](O)[C@@H]2O)[C@H](O)[C@H](O)[C@H]1O the EC50 was 1.7 ± 0.5 µM (PPARs; reporter gene, agonist; HepG2 transfected PPRE-luciferase and PPAR; 20 h).
CC[C@H](C)[C@H](NC(=O)[C@H](CCC(=O)O)NC(=O)[C@H](CO)NC(=O)[C@@H](NC(=O)[C@@H](N)CO)C(C)C)C(=O)N[C@@H](CCC(N)=O)C(=O)N[C@@H](CC(C)C)C(=O)N[C@@H](CCSC)C(=O)N[C@@H](Cc1c[nH]cn1)C(=O)N[C@@H](CC(N)=O)C(=O)N[C@@H](CC(C)C)C(=O)NCC(=O)N[C@@H](CCCCN)C(=O)N[C@@H](Cc1c[nH]cn1)C(=O)N[C@@H](CC(C)C)C(=O)N[C@@H](CC(N)=O)C(=O)N[C@@H](CO)C(=O)N[C@@H](CCSC)C(=O)N[C@@H](CCC(=O)O)C(=O)N[C@@H](CCCNC(=N)N)C(=O)N[C@H](C(=O)N[C@@H](CCC(=O)O)C(=O)N[C@@H](Cc1c[nH]c2ccccc12)C(=O)N[C@@H](CC(C)C)C(=O)N[C@@H](CCCNC(=N)N)C(=O)N[C@@H](CCCCN)C(=O)N[C@@H](CCCCN)C(=O)N[C@@H](CC(C)C)C(=O)N[C@@H](CCC(N)=O)C(=O)N[C@@H](CC(=O)O)C(=O)N[C@H](C(=O)N[C@@H](Cc1c[nH]cn1)C(=O)N[C@@H](CC(N)=O)C(=O)N[C@@H](Cc1ccccc1)C(=O)O)C(C)C)C(C)C — result for “time to diminished cAMP”: ~5 min (PTH1 receptor; cAMP level, Epac FRET sensor; HEK293 expressing dynamin K44A; concentration not given, after ligand washout; up to).
CCN1CCN(Cc2ccc(NC(=O)c3ccc(C)c(NC(=O)c4cncc(-c5cccs5)c4)c3)cc2C(F)(F)F)CC1 — result for phosphorylation: “inhibited” (SRC family kinases; inhibitor, Western blot; NCI-H2286 and HCC366; 0.5 µM, 3 h).
With CC(=O)N[C@@H](Cc1ccc(O)cc1)CN(CC(=O)N[C@@H](CCCCN)CN(CC(=O)N[C@@H](Cc1ccccc1)CN(CC(=O)N[C@H]1CCCCNc2c(F)c(F)c(c(F)c2F)S(=O)(=O)c2c(F)c(F)c(c(F)c2F)NCCCC[C@@H](CN(CC(=O)N[C@@H](C)CN(CC(N)=O)S(=O)(=O)CCN)S(C)(=O)=O)NC(=O)CN(S(=O)(=O)CC(C)C)C[C@H](CC(C)C)NC(=O)CN(S(=O)(=O)CCN)C1)S(=O)(=O)CC(C)C)S(=O)(=O)CCN)S(C)(=O)=O the IC50 was > 100 µM (CREB; reporter gene, inhibitor, CRE Renilla luciferase; HEK-293T; 30 min, together with: forskolin 10 µM for 5 h).
With C[C@@H](N)C1CCN(S(=O)(=O)c2cccc3c(=O)[nH]ccc23)CC1 the inhibition was 61% (ROCK; MLC2 phosphorylation, inhibitor; HUVEC; 50 µM, 1 h, together with: LPA; relative to: LPA alone).

Some of these lines once more:
For CC(=O)Nc1ccc(Sc2ncccc2C(=O)Nc2ccc(F)cc2)cn1, the span was 43 nM (P2Y receptors, human; IP1 accumulation, positive allosteric modulator; HEK293 parental; together with: ATP).
Cc1sc2ncn(CC(=O)N3CCCC3)c(=O)c2c1-c1cccc(Br)c1: “calcium fluorescence increase” 1.75 fold (NMDA receptor mouse; patch clamp with Ca2+ imaging; cultured cortical neurons; 50 µM; relative to: vehicle).
With CC(=O)N[C@@H](Cc1ccc(O)cc1)CN(CC(=O)N[C@@H](CCCCN)CN(CC(=O)N[C@@H](CC(C)C)CN(CC(=O)N[C@H]1CCCCNc2c(F)c(F)c(c(F)c2F)S(=O)(=O)c2c(F)c(F)c(c(F)c2F)NCCCC[C@@H](CN(CC(=O)N[C@@H](C)CN(CC(N)=O)S(C)(=O)=O)S(C)(=O)=O)NC(=O)CN(S(=O)(=O)CC(C)C)C[C@H](CC(C)C)NC(=O)CN(S(=O)(=O)CCN)C1)S(=O)(=O)CC(C)C)S(=O)(=O)CCN)S(C)(=O)=O the IC50 was > 100 µM (CREB; reporter gene, inhibitor, CRE Renilla luciferase; HEK-293T; 30 min, together with: forskolin 10 µM for 5 h).
